Published values collected from several papers.
Numbered parts are unrelated; each lists some results of a single study. Positions count from the first letter of the parent shown.

Block 1
Target: CCNA1, cyclin fold, Cln2 fusion (human)
Method: yeast growth competition, sequencing
Sample: yeast
Setting: strong parent motif
Reference: not given
Direction: higher = stronger binding
Measurement: normalised enrichment score
Starting sequence: RBL2 docking peptide (human); STTRRRLFVENDS; partner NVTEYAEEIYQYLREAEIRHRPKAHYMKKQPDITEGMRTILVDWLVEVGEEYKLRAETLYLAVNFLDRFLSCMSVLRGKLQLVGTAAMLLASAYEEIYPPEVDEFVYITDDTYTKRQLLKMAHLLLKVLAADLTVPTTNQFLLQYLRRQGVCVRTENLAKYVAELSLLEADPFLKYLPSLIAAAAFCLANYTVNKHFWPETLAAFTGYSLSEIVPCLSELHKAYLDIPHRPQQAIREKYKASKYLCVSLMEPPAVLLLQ
N11F: 0.805
S1N: 0.609
F8H: 0.0898
F8I: 0.345
S13M: 0.609
N11I: 0.233
L7V: 0.212
R4I: 0.477
N11R: 0.724
T2G: 0.822
R6P: 0.251
R5P: 0.466

Block 2
Target: Fragile X messenger ribonucleoprotein 1, C-terminal low-complexity region (Fmr1, Mus musculus, UniProt P35922)
Method: RNA Bind-n-Seq
Form: RNA
Sample: in vitro
Concentration: 200 nM
Setting: whole 134-nt RNA, ends assumed
Added: 150 mM LiCl
Reference: input library
Direction: higher = stronger binding
Measurement: log2 enrichment
Library: 7-deaza-guanosine replaces G
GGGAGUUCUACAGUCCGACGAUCGGACACAGCUUGGGCUAUGGCUUUGUGAACUACGUGACCGCGAAGGAUGCAGAGAGAGCGAUCAACACGCUGAACGGCUUGAGGCUCCAGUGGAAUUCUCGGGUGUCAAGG: -2.32
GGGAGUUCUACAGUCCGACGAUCAAGUCCUGUGCUACACAUCGUAUGUACCGAAUCGGGAAAAGGGAAAAGGAAAAGGGAAAGUAUUAUGUUACGCCGUUCGGAUCUGCACUUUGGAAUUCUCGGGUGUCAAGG: -0.618
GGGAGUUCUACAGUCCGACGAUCCCUCAAGUCCUGUGCUACACAUCGUAUGUACCGAAUCGGGCCGGCCGGGCCGGAAAGUAUUAUGUUACGCCGUUCGGAUCUGCACUUCCAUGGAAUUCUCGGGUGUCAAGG: 0.88
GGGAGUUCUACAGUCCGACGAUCCGGUCAGACUUUGUGUUACAUAAAUUAACACUGUUCUCAGGUAAUGAGAGAUCCAAACACCAAGCGCUCCAGGGGCUUUGGGUUUGUCACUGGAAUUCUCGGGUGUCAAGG: -1.94
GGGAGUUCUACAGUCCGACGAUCACCAUGCAGGUGGGCAUCUUUGGGAAGUGGGGCAAGGGGGGGAUAGGGAGGGGGGUAAAACUUUGGGAACAGGUGGUCCCAGGUCGUUUCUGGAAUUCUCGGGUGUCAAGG: 1.41
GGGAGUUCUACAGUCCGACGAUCUGGUGACCUACCUGGACGUCCGGAGCUGCCUUGGACACCUAGGCUACCUGGGCUACCCCACCCUCUGUGAGCAGGACCAGGCCCAUGCCAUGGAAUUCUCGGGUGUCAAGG: 0.207
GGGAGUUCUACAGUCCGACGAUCGCAGGAAGUAAAAACAAAUGGAAAUGCUUCGGAUAGUGGCAGGGGUGGGGGUUGCUAAGGAAGGGGUGGGAUGGGAGUGGGUAAAGAGUUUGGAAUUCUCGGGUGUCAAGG: 1.1
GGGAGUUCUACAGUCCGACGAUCAGUCCUGUGCUACACAUCGUAUGUACCGAAUCGGGGCCCGGGGCCCGGGGCCCGGGGAAAGUAUUAUGUUACGCCGUUCGGAUCUGCACUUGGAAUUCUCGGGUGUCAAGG: -2.25

Block 3
Target: Sal-like protein 4, full length isoform B (SALL4, Homo sapiens, UniProt Q9UJQ4-2, residues 1-616)
Method: universal PBM
Form: double-stranded DNA, one strand shown
Sample: in vitro
Concentration: not given
Setting: 8-mer, flanks averaged, mean of replicates
Direction: higher = stronger binding
Measurement: E-score
CACTGAGG: -0.206
CTTTTAAC: 0.122
ACCTGCCA: -0.0557
AAAAAGTA: 0.241
ACTCAAGC: -0.0836
TAAGTGAA: 0.0786
GGGGGGCA: -0.338
AGGCGTGC: -0.118
ACACGAGG: -0.0759
CCAAAGAG: -0.121
CGGGCCGA: -0.425

Block 4
Target: Centromere-binding protein 1, full length, His-tagged (CBF1, Saccharomyces cerevisiae, UniProt P17106, residues 1-351)
Chain of UniProt P17106 (whole entry, looked up): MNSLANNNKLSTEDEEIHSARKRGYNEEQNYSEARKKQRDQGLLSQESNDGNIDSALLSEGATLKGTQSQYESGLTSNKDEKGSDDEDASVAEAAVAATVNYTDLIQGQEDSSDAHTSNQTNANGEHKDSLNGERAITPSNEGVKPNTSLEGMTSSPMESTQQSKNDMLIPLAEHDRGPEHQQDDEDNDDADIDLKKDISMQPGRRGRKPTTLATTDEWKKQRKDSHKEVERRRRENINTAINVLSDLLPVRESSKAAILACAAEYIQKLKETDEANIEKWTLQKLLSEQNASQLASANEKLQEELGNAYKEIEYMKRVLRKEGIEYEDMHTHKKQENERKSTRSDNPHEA
Method: competition protein-binding microarray
Form: double-stranded DNA, one strand shown
Sample: in vitro
Concentration: 2 µM
Setting: whole 60-bp probe, lowest competitor level
Added: Pho4 competitor, 0.05 µM
Direction: higher = stronger binding
Measurement: fluorescence intensity
CATTCGGTTAATCAACACGTGGAAGTCCCAGGTTCTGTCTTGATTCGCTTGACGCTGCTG: 705 a.u.
CTTTCCCGATCTTTTCACGTGTTTTTAGCACATTTGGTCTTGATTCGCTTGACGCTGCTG: 1130 a.u.
CTGAATTCTTTAAAGAGTGTGACAGTGTCTTTTCCGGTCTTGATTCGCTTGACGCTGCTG: 75.1 a.u.
TTTTTCCTCTCTGGCCAGGTGACGTTCTGAATTTTTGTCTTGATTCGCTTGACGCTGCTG: 146 a.u.
CGGGGTTAAGTTTGAAGAGTGGGTGGCTTGCAGCAGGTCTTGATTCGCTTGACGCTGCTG: 57.1 a.u.
AGCTCCTGCACTTTGCACGTGGCCGAGCCATCGCCCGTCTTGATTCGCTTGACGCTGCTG: 841 a.u.
TGGTCTCAGTGCTGGCACCTGACGAACTATTCGTAGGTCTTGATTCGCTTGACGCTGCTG: 254 a.u.
CAATCGTCCCGGTGCCACATGAACCAAAACATTTGCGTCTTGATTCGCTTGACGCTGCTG: 74.6 a.u.
GTGTGTATACAAAGAAGAGAGGTGTTAGACCAGTATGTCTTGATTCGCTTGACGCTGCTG: 100 a.u.
CGTCCTAGTGATTGTGTCGTGGGTGCCATGAGGAAGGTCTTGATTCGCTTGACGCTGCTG: 74.8 a.u.
TCAACTGGTCTAGCCCATGTGTCTTTAGTTTCCAAGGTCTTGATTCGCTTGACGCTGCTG: 88.1 a.u.
CGGGGTTAAGTTTGTAGCGTGGGTGGCTTGCAGCAGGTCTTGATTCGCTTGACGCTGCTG: 76.2 a.u.

Block 5
Target: Histone acetyltransferase KAT6A, winged helix 2, GST fusion (KAT6A, Homo sapiens, UniProt Q92794, residues 85-181)
Method: protein binding microarray
Form: double-stranded DNA, one strand shown
Sample: in vitro
Concentration: not given
Setting: 8-mer, flanks averaged, mean of 2 arrays, mostly near background
Reference: not given
Direction: higher = stronger binding
Measurement: E-score
Residues (chain): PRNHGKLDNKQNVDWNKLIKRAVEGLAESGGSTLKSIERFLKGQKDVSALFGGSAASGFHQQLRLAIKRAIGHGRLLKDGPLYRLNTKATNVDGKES
CAATCGGA: 0.116
CGTGCAGA: -0.144
TATCCAAA: 0.113
AAGTATAT: -0.0621
ACAGGTCC: -0.0448
AGAATCGG: 0.0279
ATCGCATG: 0.109
CTTACAAA: 0.0258
GAGGGCAA: 0.227
AGCCTCTG: -0.212

Block 6
Target: RING finger protein unkempt homolog, zinc fingers 1-6, GST-SBP tag (UNK, Homo sapiens, UniProt Q9C0B0, residues 30-357)
Chain of UniProt Q9C0B0 (30-357, looked up): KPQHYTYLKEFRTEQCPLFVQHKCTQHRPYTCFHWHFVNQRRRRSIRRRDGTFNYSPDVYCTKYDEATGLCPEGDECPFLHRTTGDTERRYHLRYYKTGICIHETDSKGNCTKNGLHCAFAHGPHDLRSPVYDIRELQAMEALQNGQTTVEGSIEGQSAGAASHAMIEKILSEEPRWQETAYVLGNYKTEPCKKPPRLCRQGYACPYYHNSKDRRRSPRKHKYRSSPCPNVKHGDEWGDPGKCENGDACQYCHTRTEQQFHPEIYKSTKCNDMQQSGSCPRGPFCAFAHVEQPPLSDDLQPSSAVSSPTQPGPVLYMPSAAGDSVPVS
Method: RNA Bind-n-Seq
Form: RNA
Sample: in vitro
Concentration: not given
Setting: RNA with constant flanks, human and mouse sites, ends assumed
Reference: input RNA pool
Direction: higher = stronger binding
Measurement: bound/input enrichment
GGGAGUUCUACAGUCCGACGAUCGGCGCGGCGCUGCAGAACUACAACAACGAGCUGGUCAAGUGCAUAGAGGAGCUGUGCCAGAAGCGGGAGGAGCUGUGCCGGCAGAUCCAGGAGGAGGAGGACGAGAAGCAGCGGCUGCAGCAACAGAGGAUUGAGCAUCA: 0.352 ratio
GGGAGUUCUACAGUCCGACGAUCUCUAGAAUGUCUUCAACUAAAUCAAGUGGAAGUGAAUCAGACAGAUCAGAAAGGCCUGCAUUAGUACGCCAGUCUACUUUCAUCAAAGAAGCCCCAAGCCCAACCCUGAGGAGGAAACUGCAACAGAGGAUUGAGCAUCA: 0.124 ratio
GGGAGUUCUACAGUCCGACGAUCCCUGCAGUAGGAAGUUUUGGGGUUUUUUGUUUUUGUUUGGUUUUGGUUUUGUUUUUCUUAAAUAGUCUCUUAUGGGUAGCUGGAUUCUCUGCCAUUUGUAAUUUUUCCUCUGAUUCCAAUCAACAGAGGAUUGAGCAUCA: 8.79 ratio
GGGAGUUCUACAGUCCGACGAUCGCUGAAGGAUAUGUUAUCGGCAGCUGUAUUAAACACAUUCCAAUCGCAGGAAGAGAUAUAACAUAUUUUAUUCAGCAACUGCUGCGAGACCGAGAAGUAGGAAUCCCUCCUGAGCAGUCCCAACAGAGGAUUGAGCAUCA: 0.123 ratio
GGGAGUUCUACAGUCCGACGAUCAGAACCAAGACUUUGGCAGACCUUUUGGAAUCAUUUAUCGCAGCGCUGUACAUCGACAAGGACCUGGAAUAUGUCCACACUUUCAUGAACGUCUGCUUCUUUCCCCGGCUGAAGGAGUUCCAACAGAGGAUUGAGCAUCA: 0.229 ratio
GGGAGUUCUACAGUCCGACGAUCAAUCUUUUAAAAUCAACAUGGGGUAGGGAAAGAGAAAUCAUAGGUACCCAGGCAAAUCCCUGAGCCAGUAAGGCCCUGUAGAGUAAUAAUGAAUUGUUACCUUAAAAUCUUAUCACUAACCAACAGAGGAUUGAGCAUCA: 0.797 ratio
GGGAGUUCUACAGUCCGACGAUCGCGAACAGCCAUUAGGAAGAAUGCUGAGUGCUCCGGCGUGAGUCGUGACUUCUGAUGACCUAGCAAAUAAUGCCACACACUGCAAUACUGUGAAGACACUCGCAAGGAUACAGCAGUGAUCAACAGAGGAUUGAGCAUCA: 0.361 ratio
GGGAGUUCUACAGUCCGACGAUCAGAGCAUCAAGGGAACACCCAUCUGUCCAGGAGAAGAAGAAGUCCACCAUCUGGCAGUUCUUUAGUCGCCUCUUCAGCUCCUCAUCUAGCCCCCCUCCGGCCAAACGAUCCUACCCAUCUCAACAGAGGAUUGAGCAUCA: 0.778 ratio
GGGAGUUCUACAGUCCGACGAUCUCAGAAAGAAGCAACUUUGAAUCUGAACUUGAUAAUAAAAGAAGAAAUGAAAAACCCCAGUUGGAUUAGAAAGAACUGGCUUCUUGUGGCUGGGGUGACUUUCAUAGGCGUCCAUCUUGGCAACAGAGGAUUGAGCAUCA: 0.223 ratio

Block 7
Target: Interferon regulatory factor 5, full length, phosphomimetic (IRF5, Homo sapiens, UniProt Q13568-2, residues 1-514, S451D/S453D/S456D/S462D)
Method: protein-binding microarray
Form: double-stranded DNA, one strand shown
Sample: in vitro
Concentration: 940 nM top
Setting: 60-bp whole probe
Added: salmon DNA 0.4 mg/ml
Reference: random background probes
Direction: higher = stronger binding
Measurement: fitted relative affinity
All sequences stand within: GCCTAGCAC … GTCTTGATTCGCTTGACGCTGCTG
GGTGTCTAGGTTAGGGATTAGTGCTAG: -0.375 z-score
GACGGAGTGCTTATCCTGACGTGCTAG: -0.259 z-score
AAATGTGTTAGAAACAGGTTGTGCTAG: -0.657 z-score
GACGGTTTCCTGTTCCTGACGTGCTAG: 1.34 z-score
TCACTTTCCTTCTTGAAACTGTGCTAG: 1.57 z-score
TCAATTTTTACATTATTACTGTGCTAG: 0.652 z-score
GACGAGCTGGGGACTGGAGACGTGCTA: -0.569 z-score
AACAGAGGAATGGATACAGAGTGCTAG: 0.231 z-score
GAAGGTATCGGTCTCGGGACGTGCTAG: 6.55 z-score
TCATTTCTCTTTCACTGACTGTGCTAG: 2.08 z-score
ATATACCTGAATATCTTCAGGTGCTAG: -0.156 z-score
GTCGGACTGCTTATCCTGACGTGCTAG: -0.423 z-score
TCACATTCCAATTCTTTTACTGTGCTA: 1.54 z-score

Some of these lines once more (block 7):
GACGGAGTGCTTATCCTGACGTGCTAG: -0.259 z-score
AAATGTGTTAGAAACAGGTTGTGCTAG: -0.657 z-score
GACGGTTTCCTGTTCCTGACGTGCTAG: 1.34 z-score
TCACTTTCCTTCTTGAAACTGTGCTAG: 1.57 z-score
TCAATTTTTACATTATTACTGTGCTAG: 0.652 z-score
GACGAGCTGGGGACTGGAGACGTGCTA: -0.569 z-score
AACAGAGGAATGGATACAGAGTGCTAG: 0.231 z-score
GAAGGTATCGGTCTCGGGACGTGCTAG: 6.55 z-score
TCATTTCTCTTTCACTGACTGTGCTAG: 2.08 z-score
